{"data": "Measured values collected from several papers", "HCRTR1": "Orexin/Hypocretin receptor type 1 (HCRTR1, Homo sapiens, UniProt O43613)", "note": "Protocols differ between the studies behind these lines. Numbers after ± are the reported error.", "UniProt Q07954, sequence (whole entry, unmodified, looked up)": "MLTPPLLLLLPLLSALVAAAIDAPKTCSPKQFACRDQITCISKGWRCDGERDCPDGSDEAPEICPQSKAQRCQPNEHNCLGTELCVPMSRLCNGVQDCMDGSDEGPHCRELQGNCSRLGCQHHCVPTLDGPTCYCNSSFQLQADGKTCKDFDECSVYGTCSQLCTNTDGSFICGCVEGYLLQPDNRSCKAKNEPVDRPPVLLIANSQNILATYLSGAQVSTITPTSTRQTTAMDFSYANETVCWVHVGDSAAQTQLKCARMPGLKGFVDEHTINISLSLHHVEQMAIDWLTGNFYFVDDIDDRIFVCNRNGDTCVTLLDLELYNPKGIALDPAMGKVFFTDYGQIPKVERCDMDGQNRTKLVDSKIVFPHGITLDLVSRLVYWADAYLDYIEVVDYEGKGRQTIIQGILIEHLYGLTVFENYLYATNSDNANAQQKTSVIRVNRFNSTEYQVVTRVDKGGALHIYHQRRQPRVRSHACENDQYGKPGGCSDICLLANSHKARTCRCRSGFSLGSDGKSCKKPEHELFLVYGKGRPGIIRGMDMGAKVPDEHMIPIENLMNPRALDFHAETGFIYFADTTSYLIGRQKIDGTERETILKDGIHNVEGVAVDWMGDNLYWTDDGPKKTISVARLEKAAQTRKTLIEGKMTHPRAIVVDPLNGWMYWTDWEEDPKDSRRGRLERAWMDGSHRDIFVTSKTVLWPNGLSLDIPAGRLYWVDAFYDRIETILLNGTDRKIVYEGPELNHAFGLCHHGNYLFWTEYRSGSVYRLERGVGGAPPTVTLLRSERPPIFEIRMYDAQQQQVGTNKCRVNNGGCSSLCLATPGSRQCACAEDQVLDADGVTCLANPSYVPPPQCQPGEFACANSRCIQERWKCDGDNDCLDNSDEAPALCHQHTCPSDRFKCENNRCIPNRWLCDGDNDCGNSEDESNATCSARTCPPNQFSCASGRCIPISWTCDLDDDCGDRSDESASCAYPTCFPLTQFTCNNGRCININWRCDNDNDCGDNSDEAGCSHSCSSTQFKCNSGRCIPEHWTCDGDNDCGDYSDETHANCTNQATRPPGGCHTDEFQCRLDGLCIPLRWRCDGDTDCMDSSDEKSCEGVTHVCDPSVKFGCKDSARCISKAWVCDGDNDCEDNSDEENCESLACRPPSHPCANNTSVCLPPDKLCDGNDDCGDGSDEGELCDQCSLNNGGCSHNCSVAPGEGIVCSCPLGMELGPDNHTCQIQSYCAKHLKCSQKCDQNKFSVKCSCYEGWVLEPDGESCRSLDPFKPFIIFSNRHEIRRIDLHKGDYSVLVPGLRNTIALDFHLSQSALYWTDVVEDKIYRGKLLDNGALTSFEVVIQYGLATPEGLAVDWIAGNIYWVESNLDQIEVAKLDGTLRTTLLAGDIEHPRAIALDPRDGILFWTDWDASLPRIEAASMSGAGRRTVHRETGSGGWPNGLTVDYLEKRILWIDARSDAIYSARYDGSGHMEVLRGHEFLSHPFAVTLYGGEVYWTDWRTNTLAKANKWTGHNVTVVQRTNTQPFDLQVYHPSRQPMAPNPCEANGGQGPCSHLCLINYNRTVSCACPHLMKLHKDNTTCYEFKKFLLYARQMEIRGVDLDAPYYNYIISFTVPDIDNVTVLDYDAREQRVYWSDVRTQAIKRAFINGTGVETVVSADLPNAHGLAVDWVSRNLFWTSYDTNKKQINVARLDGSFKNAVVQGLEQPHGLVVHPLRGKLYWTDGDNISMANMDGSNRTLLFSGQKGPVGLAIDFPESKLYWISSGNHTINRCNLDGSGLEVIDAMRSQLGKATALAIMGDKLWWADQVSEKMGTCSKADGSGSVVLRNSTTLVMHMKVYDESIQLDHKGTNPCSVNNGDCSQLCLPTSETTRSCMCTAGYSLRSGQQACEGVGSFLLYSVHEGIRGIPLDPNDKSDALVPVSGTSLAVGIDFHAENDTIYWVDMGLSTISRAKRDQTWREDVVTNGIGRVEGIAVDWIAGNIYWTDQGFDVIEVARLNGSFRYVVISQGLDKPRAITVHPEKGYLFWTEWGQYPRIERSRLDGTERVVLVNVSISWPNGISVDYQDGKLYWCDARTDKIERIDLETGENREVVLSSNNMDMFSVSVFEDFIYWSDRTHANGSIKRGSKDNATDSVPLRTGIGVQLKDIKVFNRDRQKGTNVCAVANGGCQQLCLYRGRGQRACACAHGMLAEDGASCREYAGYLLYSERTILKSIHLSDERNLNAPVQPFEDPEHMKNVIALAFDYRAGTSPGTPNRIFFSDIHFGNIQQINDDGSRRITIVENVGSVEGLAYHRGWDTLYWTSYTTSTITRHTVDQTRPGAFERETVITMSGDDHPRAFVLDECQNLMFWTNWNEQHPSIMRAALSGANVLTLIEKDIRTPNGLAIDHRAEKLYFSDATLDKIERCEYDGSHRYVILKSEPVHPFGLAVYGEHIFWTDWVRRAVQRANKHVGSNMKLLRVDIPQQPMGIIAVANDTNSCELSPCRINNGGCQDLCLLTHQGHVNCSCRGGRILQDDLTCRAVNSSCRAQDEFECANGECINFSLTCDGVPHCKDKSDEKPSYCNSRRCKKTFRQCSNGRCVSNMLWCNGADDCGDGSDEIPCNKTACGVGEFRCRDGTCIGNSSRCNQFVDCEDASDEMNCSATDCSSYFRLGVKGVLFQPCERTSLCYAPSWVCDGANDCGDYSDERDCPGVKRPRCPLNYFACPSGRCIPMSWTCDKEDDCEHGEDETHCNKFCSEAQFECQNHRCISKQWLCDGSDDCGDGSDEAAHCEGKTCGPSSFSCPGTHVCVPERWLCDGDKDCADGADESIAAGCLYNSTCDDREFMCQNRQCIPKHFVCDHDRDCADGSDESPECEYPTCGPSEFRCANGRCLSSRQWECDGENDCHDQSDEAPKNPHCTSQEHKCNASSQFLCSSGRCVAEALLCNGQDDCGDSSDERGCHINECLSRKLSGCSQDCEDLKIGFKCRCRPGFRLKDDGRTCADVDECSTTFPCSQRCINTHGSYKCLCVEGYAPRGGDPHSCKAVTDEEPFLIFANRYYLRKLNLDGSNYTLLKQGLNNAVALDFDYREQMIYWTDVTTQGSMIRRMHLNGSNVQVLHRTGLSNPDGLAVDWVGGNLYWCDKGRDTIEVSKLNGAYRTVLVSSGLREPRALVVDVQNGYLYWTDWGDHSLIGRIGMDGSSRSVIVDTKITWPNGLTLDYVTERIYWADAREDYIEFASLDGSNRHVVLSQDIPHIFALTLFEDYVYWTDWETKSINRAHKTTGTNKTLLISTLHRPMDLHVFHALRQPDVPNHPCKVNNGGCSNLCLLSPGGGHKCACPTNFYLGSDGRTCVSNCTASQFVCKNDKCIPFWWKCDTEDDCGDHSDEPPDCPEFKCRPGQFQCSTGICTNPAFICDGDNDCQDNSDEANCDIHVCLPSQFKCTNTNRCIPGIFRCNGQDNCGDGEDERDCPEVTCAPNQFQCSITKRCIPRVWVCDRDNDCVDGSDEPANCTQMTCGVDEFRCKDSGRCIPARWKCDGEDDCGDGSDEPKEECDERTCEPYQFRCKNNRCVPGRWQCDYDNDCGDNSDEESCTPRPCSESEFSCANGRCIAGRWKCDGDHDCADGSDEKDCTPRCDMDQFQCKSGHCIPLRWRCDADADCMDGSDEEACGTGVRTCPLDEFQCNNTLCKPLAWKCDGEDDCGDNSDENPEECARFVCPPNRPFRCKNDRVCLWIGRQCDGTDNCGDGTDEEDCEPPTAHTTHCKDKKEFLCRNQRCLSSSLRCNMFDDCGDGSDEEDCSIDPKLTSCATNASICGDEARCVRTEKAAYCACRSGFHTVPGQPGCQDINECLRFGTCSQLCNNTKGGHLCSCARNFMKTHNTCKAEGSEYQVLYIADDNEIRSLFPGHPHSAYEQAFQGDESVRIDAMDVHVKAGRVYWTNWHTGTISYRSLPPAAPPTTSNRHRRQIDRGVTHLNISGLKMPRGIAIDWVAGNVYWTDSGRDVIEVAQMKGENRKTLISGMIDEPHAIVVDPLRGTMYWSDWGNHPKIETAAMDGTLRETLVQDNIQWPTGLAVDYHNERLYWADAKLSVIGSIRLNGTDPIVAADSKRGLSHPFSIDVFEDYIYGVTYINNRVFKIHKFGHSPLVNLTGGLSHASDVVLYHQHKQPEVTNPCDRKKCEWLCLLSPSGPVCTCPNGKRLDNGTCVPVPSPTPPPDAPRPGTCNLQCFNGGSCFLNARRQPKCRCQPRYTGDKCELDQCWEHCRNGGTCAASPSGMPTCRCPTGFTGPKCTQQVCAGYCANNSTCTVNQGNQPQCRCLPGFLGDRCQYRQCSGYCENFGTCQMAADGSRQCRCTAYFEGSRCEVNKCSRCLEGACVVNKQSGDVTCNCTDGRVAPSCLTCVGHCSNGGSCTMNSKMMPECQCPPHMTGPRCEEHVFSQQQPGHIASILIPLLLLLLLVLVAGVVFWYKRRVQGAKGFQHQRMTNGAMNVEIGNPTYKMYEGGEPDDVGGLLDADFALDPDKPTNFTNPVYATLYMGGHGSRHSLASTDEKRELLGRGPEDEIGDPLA", "UniProt O43613, sequence (whole entry, looked up)": "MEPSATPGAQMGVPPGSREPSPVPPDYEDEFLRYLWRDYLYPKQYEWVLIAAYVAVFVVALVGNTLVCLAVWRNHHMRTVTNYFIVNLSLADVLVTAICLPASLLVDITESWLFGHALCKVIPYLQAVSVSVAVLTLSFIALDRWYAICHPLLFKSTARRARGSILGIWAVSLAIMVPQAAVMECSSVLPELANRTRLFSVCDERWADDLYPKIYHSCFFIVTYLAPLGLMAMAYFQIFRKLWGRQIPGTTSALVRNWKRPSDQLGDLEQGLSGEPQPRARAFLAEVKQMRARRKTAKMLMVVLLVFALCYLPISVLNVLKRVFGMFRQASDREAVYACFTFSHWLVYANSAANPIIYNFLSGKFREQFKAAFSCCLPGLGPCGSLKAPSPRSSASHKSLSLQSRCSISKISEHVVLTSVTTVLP", "UniProt P09382, sequence (whole entry, looked up)": "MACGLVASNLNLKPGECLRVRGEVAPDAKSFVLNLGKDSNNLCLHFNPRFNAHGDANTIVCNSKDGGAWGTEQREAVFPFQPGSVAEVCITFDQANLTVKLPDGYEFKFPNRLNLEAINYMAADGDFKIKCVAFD"}
{"Molecule": "COc1ccc(CC2c3cc(OS(=O)(=O)c4ccccc4)c(OC)cc3CCN2CC(=O)NCc2ccccc2)cc1OC (stereo not shown)", "target": "HCRTR1", "Kd [µM]": "0.0305 ± 0.0091"}
{"Molecule": "COC(=O)[C@@H](N)CCCCN", "target": "LRP1, CR5 domain (Homo sapiens, UniProt Q07954)", "assay": "binding, tryptophan fluorescence titration", "test system": "isolated CR5 domain", "setting": "pH 7.4, 298 K, ionic strength 0.17", "Kd [µM]": "400 ± 20"}
{"Molecule": "hemin", "target": "Transcriptional regulator LmrR (Lactococcus cremoris, UniProt A2RI36, K55D/K59Q)", "assay": "tryptophan fluorescence quenching", "setting": "pH 7.0, 150 mM NaCl", "Kd [µM]": "0.038 ± 0.027"}
{"Molecule": "CC(=O)N[C@@H](CCCCN)C(=O)N[C@@H](CCCNC(=N)N)C(=O)N[C@@H](CC(C)C)C(=O)N[C@@H](CCCNC(=N)N)C(=O)N[C@@H](CCCNC(=N)N)C(=O)N[C@@H](CO)C(=O)N[C@@H](C)C(=O)N[C@@H](Cc1c[nH]cn1)C(=O)N[C@@H](C)C(=O)N[C@@H](CCCNC(=N)N)C(=O)N[C@@H](CCCCN)C(=O)N[C@@H](CCC(=O)O)C(=O)N[C@H](C(=O)N[C@@H](CCC(=O)O)C(=O)N[C@@H](Cc1ccccc1)C(=O)N[C@@H](CC(C)C)C(=O)N[C@@H](CCCNC(=N)N)C(=O)N[C@@H](CC(C)C)C(=O)N[C@@H](CCCCN)C(=O)N[C@@H](CCCNC(=N)N)C(=O)N[C@H](C(=O)N[C@@H](CCCNC(=N)N)C(=O)N[C@@H](CC(C)C)C(=O)NCC(=O)N[C@@H](CC(C)C)C(=O)N[C@@H](CCC(=O)O)C(=O)N[C@@H](Cc1ccc(O)cc1)C(N)=O)[C@@H](C)O)[C@@H](C)O", "target": "Protein S100-B (Homo sapiens, UniProt P04271)", "assay": "binding, isothermal titration calorimetry", "setting": "low salt, added: Ca2+ 5 mM", "scale": "higher-affinity site", "Kd [µM]": 0.4}
{"Molecule": "CC(C)C[C@H](NC(=O)[C@H](CC(N)=O)NC(=O)[C@H](CCCNC(=N)N)NC(=O)[C@H](CC(=O)O)NC(=O)[C@@H](NC(=O)[C@@H]1CCCN1C(=O)[C@@H]1CCCN1C(=O)[C@@H]1CCCN1)C(C)C)C(=O)N[C@@H](CCCCN)C(=O)N1CCC[C@H]1C(=O)N[C@@H](CC(=O)O)C(=O)N[C@@H](C)C(=O)O", "target": "GRB2 (Homo sapiens, UniProt P62993)", "assay": "binding, ITC", "setting": "pH 8", "Kd [µM]": 132}
{"Molecule": "CC(=O)N[C@H]1C(O)O[C@H](CO)[C@@H](O[C@@H]2O[C@H](CO)[C@H](O)[C@H](O)[C@H]2O)[C@@H]1O (stereo partly shown)", "target": "Galectin-1 (LGALS1, Homo sapiens, UniProt P09382)", "assay": "binding, ITC", "setting": "pH 7.2", "Kd [µM]": 89.6}
{"Molecule": "CCCCCCCCCCCC(=O)O", "target": "Chalcone isomerase-like protein 1 (CHIL1, Humulus lupulus, UniProt A0A2U7XUH7)", "assay": "binding, differential scanning fluorimetry", "Kd [µM]": 11.8}
{"Molecule": "CC(C)C[C@@H](NC(=O)[C@H](NC(=O)[C@@H](CC(=O)O)NC(=O)[C@H](NC(=O)[C@@H](CC(=O)O)NC(=O)c1ccc(S(N)(=O)=O)cc1)C(C)C)C(C)C)C(N)=O", "target": "CA2 (Homo sapiens, UniProt P00918)", "assay": "binding, SPR", "Kd [µM]": 0.082}
{"Molecule": "CN(C)[C@@H]1C(O)=C(C(N)=O)C(=O)[C@@]2(O)C(O)=C3C(=O)c4c(O)ccc(Cl)c4[C@@](C)(O)[C@H]3C[C@@H]12", "target": "HIV-1 SL4 RNA stem-loop", "assay": "binding, ESI-FTMS titration", "setting": "pH 7.5", "Kd [µM]": "391 ± 81.1"}
{"Molecule": "COc1ccc(CC2c3cc(OCc4ccccc4)c(OC)cc3CCN2CC(=O)NCc2ccccc2)cc1OC (stereo not shown)", "target": "HCRTR1", "Kd [µM]": "0.402 ± 0.058"}
{"Molecule": "[3H]CC1([3H])CCN(c2nc(C(F)(F)F)ccc2CNC(=O)Nc2cccc3c2OCC(=O)N3)CC1", "target": "TRPV1 (Homo sapiens, UniProt Q8NER1)", "assay": "radioligand binding", "setting": "added: PMA 1 µM and cyclosporin A 250 nM", "Kd [µM]": "0.000518 ± 6.2e-05"}
{"Molecule": "CC1=C(/C=C/C(C)=C/C=C/C(C)=C/C=C/C=C(C)/C=C/C=C(C)/C=C/C2=C(C)C(=O)[C@@H](O)CC2(C)C)C(C)(C)C[C@H](O)C1=O", "target": "GSTP1 (Homo sapiens, UniProt P09211)", "assay": "surface plasmon resonance", "setting": "25 °C, 1:1 binding model", "Kd [µM]": "1.16 ± 0.02"}
{"Molecule": "COc1ccc(CC2c3cc(OC)c(OC)cc3CCN2CC(=O)N(C)Cc2ccccc2)cc1OC (stereo not shown)", "target": "HCRTR1", "Kd [µM]": "2.09 ± 0.33"}
{"Molecule": "6-amino-6-deoxy-GlcNAc", "target": "NLRP1 (Homo sapiens, UniProt Q9C000)", "assay": "binding, surface plasmon resonance", "setting": "amine derivative tethered to SAM", "Kd [µM]": "0.606 ± 0.078"}
{"Molecule": "[I-].[K+]", "target": "SLC4A1 (Homo sapiens, UniProt P02730)", "assay": "36Cl exchange flux, inhibitor, Dixon plot", "test system": "human red blood cells", "setting": "pH 10 external, 0 °C, internal Cl 129 mM, CHES buffer", "Kd [µM]": 4820}
{"Molecule": "COC(=O)[C@H](CCCCN)NC(C)=O", "target": "LRP1, CR8 domain D1085A (Homo sapiens, UniProt Q07954, D1085A)", "assay": "tryptophan fluorescence titration", "setting": "pH 7.4, 298 K, ionic strength 0.02", "Kd [µM]": "12700 ± 2900"}
{"Molecule": "COC(=O)c1cc(CCc2ccc(NC(=O)c3cc(OC)cc(OC)c3)c(C(=O)OC)c2)ccc1NC(=O)c1cc(OC)cc(OC)c1", "target": "PPIA (Homo sapiens, UniProt P62937)", "assay": "binding, SPR", "setting": "pH 7.4", "Kd [µM]": 87.5}
{"Molecule": "Cc1cc2nc3c(=O)[nH]c(=O)nc-3n(C[C@H](O)[C@H](O)[C@H](O)COP(=O)(O)O)c2cc1C", "target": "Probable flavin reductase (luxG, Photobacterium leiognathi, UniProt P29237)", "assay": "binding", "setting": "pH 8.0, 4 °C, upper limit estimate, added: NADH 300 µM", "Kd [µM]": "< 2.5"}
{"Molecule": "phosphatidylinositol 3,4,5-trisphosphate", "target": "Src kinase-associated phosphoprotein 2, DM-PH domains (Skap2, Mus musculus, UniProt Q3UND0, K56A)", "assay": "fluorescence polarization direct titration", "setting": "pH 6.5, 21 °C, compound labelled with BODIPY TMR-X", "Kd [µM]": 30}
{"Molecule": "CCCCCCOc1cc2c(cc1OC)CCN(CC(=O)NCc1ccccc1)C2Cc1ccc(OC)c(OC)c1 (stereo not shown)", "target": "HCRTR1", "Kd [µM]": "0.315 ± 0.081"}
{"Molecule": "COC(=O)[C@@H](N)CCCN=C(N)N", "target": "LRP1, CR8 domain (Homo sapiens, UniProt Q07954)", "assay": "tryptophan fluorescence titration", "setting": "pH 7.4, 298 K, CR8 domain, ionic strength 0.02", "Kd [µM]": "370 ± 20"}
{"Molecule": "PGNESLKAMLFCLFKLSSCNQSNDGSVSHQS", "target": "anti-EGFR antibody, rabbit", "assay": "binding, surface plasmon resonance", "test system": "peptide", "setting": "pH 7.4", "scale": "lower = stronger binding", "Kd [µM]": 0.634}
{"Molecule": "CN(CCOc1ccc(CC2SC(=O)NC2=O)cc1)c1ccccn1 (stereo not shown)", "target": "Cytochrome P450 2C8 (CYP2C8, Homo sapiens, UniProt P10632, K399R/R139K)", "assay": "ligand binding, equilibrium spectral binding", "test system": "purified protein", "setting": "pH 7.4, 25 °C, high-affinity site, 1% CHAPS", "Kd [µM]": "< 0.001"}
{"Molecule": "O=C(O)c1cc(=O)[nH]c(=O)n1[C@@H]1OC[C@@H](O)[C@H]1O", "target": "Orotidine 5'-phosphate decarboxylase (Saccharomyces cerevisiae S288c, UniProt P03962, S154A)", "assay": "HPLC initial velocity", "setting": "25 °C, lower limit, no saturation", "Kd [µM]": "> 100000"}
{"Molecule": "CC[C@H](C)[C@H](NC(=O)[C@@H](N)CC(=O)O)C(=O)N1CCC[C@H]1C(=O)N1CCC[C@H]1C(=O)N1CCC[C@H]1C(=O)N[C@@H](CCCNC(=N)N)C(=O)N1CCC[C@H]1C(=O)N1CCC[C@H]1C(=O)N[C@@H](CCCCN)C(=O)N1CCC[C@H]1C(=O)N[C@@H](Cc1c[nH]cn1)C(=O)N1CCC[C@H]1C(=O)O", "target": "Growth factor receptor-bound protein 2, C-terminal SH3 domain (GRB2, Homo sapiens, UniProt P62993)", "assay": "ITC", "setting": "pH 8.0, 25 °C, wild-type C-terminal SH3 domain, added: Gab1-derived peptide", "scale": "lower = stronger binding", "Kd [µM]": "152 ± 6"}
{"Molecule": "CC1NC(NCCC[C@H](N)C(=O)O)=NC1=O (stereo partly shown)", "target": "V domain R98A", "assay": "fluorescence titration", "setting": "pH 6.5, 25 °C", "Kd [µM]": "> 10"}
{"Molecule": "C#Cc1cccc(CN2CCC3=C(C2)C(=O)N(Cc2ccc(Cl)cc2)C2=NCCN23)c1", "target": "CLPP (Homo sapiens, UniProt Q16740)", "assay": "casein-FITC degradation, activator", "Kd [µM]": "0.0237 ± 0.01"}
{"Molecule": "CC(=O)O[C@H]1C(=O)[C@@]2(C)[C@H]([C@H](OC(=O)c3ccccc3)[C@]3(O)C[C@H](OC(=O)[C@H](O)[C@@H](NC(=O)c4ccccc4)c4ccccc4)C(C)=C1C3(C)C)[C@]1(OC(C)=O)CO[C@@H]1C[C@@H]2O", "target": "Cytochrome P450 2C8 (CYP2C8, Homo sapiens, UniProt P10632)", "assay": "binding, equilibrium spectral titration", "test system": "purified enzyme", "setting": "pH 7.4, 25 °C, second site, two-site model, added: 2 µM enzyme", "Kd [µM]": "24.4 ± 5.2"}
{"Molecule": "COc1ccc(CC2c3cc(OCC(F)(F)F)c(OC)cc3CCN2CC(=O)NCc2ccccc2)cc1OC (stereo not shown)", "target": "HCRTR1", "Kd [µM]": "0.0094 ± 0.0017"}
{"Molecule": "O=C1c2c(O)ccc(O)c2C(=O)c2c(NCCNCCO)ccc(NCCNCCO)c21", "target": "HIV-1 SL3 RNA stem-loop", "assay": "binding, ESI-FTMS titration", "setting": "pH 7.5", "Kd [µM]": "3.9 ± 0.5"}
{"Molecule": "COc1ccc(CC2c3cc(OC)c(OC)cc3CCN2CC(=O)Nc2ccnc3c(F)cccc23)cc1OC (stereo not shown)", "target": "HCRTR1", "Kd [µM]": "4.22 ± 1.1"}
{"Molecule": "CSCC[C@H](NC(=O)[C@H](CC(N)=O)NC(=O)[C@H](CC(N)=O)NC(=O)[C@H](CC(N)=O)NC(=O)[C@H](C)N)C(=O)N[C@@H](Cc1ccc(O)cc1)C(=O)N[C@@H](CCCNC(=N)N)C(=O)N[C@@H](CCCNC(=N)N)C(=O)O", "target": "dnaK (Escherichia coli, UniProt P0A6Y8)", "assay": "peptide binding, surface plasmon resonance", "setting": "added: ADP", "Kd [µM]": 1.69}
{"Molecule": "COc1ccc(CC2c3cc(OC)c(OC)cc3CCN2CC(=O)NCc2ccccn2)cc1OC (stereo not shown)", "target": "HCRTR1", "Kd [µM]": "0.261 ± 0.12"}
{"Molecule": "O.O=C([O-])CN(CCN(CC(=O)[O-])Cc1cc(CCC(=O)O)ccc1O)Cc1cc(CCC(=O)NCCCCCC(=O)NCCCC[C@H](NC(=O)N[C@@H](CCC(=O)O)C(=O)O)C(=O)O)ccc1[O-].[Ga+3]", "target": "FOLH1 (Homo sapiens, UniProt Q04609)", "assay": "binding, radioligand", "Kd [µM]": 0.00289}
